Published values pooled from the literature.
Every numbered part comes from another study and shows a few of its results, in no order.

Block 1
Target: RING finger protein unkempt homolog, zinc fingers 1-6, GST-SBP tag (UNK, Homo sapiens, UniProt Q9C0B0, residues 30-357)
UniProt Q9C0B0, sequence (30-357, looked up): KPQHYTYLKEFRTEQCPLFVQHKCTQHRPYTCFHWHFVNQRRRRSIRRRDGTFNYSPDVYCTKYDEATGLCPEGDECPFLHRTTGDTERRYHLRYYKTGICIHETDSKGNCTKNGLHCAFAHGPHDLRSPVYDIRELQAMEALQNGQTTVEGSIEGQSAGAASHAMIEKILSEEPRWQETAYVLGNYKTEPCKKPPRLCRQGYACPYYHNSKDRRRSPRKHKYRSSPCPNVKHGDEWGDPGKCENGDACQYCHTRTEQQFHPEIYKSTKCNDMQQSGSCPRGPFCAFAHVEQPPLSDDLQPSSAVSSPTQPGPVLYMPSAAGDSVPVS
Method: RNA Bind-n-Seq
Form: RNA
Matrix: in vitro
Concentration: not given
Notes: RNA with constant flanks, human-mouse chimeric sites, ends assumed
Baseline: input RNA pool
Reading: higher = stronger binding
Quantity: bound/input enrichment
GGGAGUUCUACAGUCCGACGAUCUUACCCGAGAACGAGGAUGAGCUGGAGAGCACCAACAGGCGCUACACCAAGAGGGACUGCAGCACUUUCCUCAGAACUAGUGAGACGGGCAUCGUGGAUCAGGUUAUGGUCACUCUCAACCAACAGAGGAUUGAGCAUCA: 0.109 ratio
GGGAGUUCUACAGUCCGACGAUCCGCUGGCGUUGAACUGUGGACUCUGAUGGCCUCCAUCUCUCAGGCACGUGUGCCUUCUCUUAGUCCCUUCUGGGUUGAUGUUAUGAAUCUCAGUACUGUGGUUUGAAAGCACCAGCUUUGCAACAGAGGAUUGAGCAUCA: 0.555 ratio
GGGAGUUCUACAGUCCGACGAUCUUGGAAGGACCAGAGCCUAAUCAACUGAAACCACUAGUCAUACAGGCUAUGCCCACCCUAAUAGAACUAAUGAAAGACCCCAGUGUAGUUGUUCGAGACACAACAGCAUGGACUGUAGGCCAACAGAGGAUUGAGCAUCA: 1.12 ratio
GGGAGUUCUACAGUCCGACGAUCAUUGUUGAAGCUAACCCACUUUUAGAAGCAUUUGGAAAUGCAAAGACUGUUCGCAACAAUAAUAGCAGUCGAUUUGGAAAAUUUGUAGAAAUUCAUUUUAAUGAAAAGAGUUCGGUUGUUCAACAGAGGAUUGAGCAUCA: 1.03 ratio
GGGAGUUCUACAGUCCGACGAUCCCUGCUCAGAUCACCAUGAAAGUAAUCCAAGGCCUAUACAGUGGGGUCACCACAGUGGAACUGGACACCCUGGCUGCUGAAACAGCUGCGACCUUGACCACGAAGCACCCUGACUAUGCCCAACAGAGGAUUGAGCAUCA: 0.129 ratio
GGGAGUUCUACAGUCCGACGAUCCAGCUGCAGACAGAAAAGGAUGAGAAGGAGCUGUAUAAGGUACAUUUGAAGAAUACAGAAAUAGAAAAUACGAAGCUUGUGUCAGAGGUCCAGACUUUAAAGAAUUUAGAUGGAAACAAACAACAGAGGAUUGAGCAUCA: 5.49 ratio
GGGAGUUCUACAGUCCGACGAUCAACAGAUUGUCUUUAAGCAUUCCAAGCGAGAAUGCUGGGGUGAUCAUUGUUGCCCAUAUAUAGUAAUACUGAGCUUUAAUGCUGUUCCAUGUUACAUCUUUCCUUCAUUGCAUAUUUGUUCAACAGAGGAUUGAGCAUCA: 0.694 ratio
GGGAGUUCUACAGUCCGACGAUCAACGUGGAACUAAGUUCCUUGGCCCGGCUUCCCAGCUUGAAUAAACUCCGGAAGUUGGAACUUAGUGACAAUAUAAUUUCUGGAGGCUUGGAAGUCCUGGCAGAGAAAUGUCCAAAUCUUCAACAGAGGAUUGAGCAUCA: 0.244 ratio

Block 2
Target: Histone acetyltransferase KAT6A, winged helix 2, GST fusion (KAT6A, Homo sapiens, UniProt Q92794, residues 85-181)
Method: protein binding microarray
Form: double-stranded DNA, one strand shown
Matrix: in vitro
Concentration: not given
Notes: 8-mer, flanks averaged, mean of 2 arrays, mostly near background
Baseline: not given
Reading: higher = stronger binding
Quantity: E-score
Construct (chain): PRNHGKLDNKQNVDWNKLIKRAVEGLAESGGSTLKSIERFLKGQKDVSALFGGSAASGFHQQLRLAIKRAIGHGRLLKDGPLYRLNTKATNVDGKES
CGACCGAA: 0.158
ATCGGGTC: 0.0693
CGTCGACA: -0.0725
TTGTGAAA: 0.085
TGGCCACA: 0.009
CACGGTAA: -0.0962
ATTACCGG: -0.0953
GCTTGTGA: -0.0847
CGCCTGTA: -0.0226
AAAATGAC: -0.0936
CCACAAAA: 0.219
ACGAGGCT: 0.0878
CAGAGCTA: -0.119
CTTCATCA: -0.0282
CGGAGCGA: 0.286
CGTGCAAG: 0.0119
ATCTGGCG: 0.178
GACTATGC: -0.0053
CCCACACA: 0.0763
AGGCAAAC: 0.108
CGATTTAC: -0.0663
GGTGCCAA: 0.121

Block 3
Target: RNA binding protein fox-1 homolog 2, RRM domain, GST-SBP tag (RBFOX2, Homo sapiens, UniProt O43251-10, residues 100-194)
Method: RNA Bind-n-Seq
Form: RNA
Matrix: in vitro
Concentration: 365 nM
Notes: natural RNA segment, single round, ends assumed
Baseline: no-protein control
Reading: higher = stronger binding
Quantity: RBNS enrichment (R)
Residues (chain): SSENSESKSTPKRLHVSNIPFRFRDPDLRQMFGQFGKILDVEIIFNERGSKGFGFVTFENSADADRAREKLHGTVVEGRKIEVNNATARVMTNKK
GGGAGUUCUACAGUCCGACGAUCGUGUCCUGGCAGAUGAUCAGUACAGUGUCCCCCUCAAGUCACACUUUCCUGCCUUACACAGAGCAGUAGCAUACCAUCCCUCUGGAGGGUAGGGGACCCCUGCGGUUCCAUGGAAUUCUCGGGUGCCAA: 0.356
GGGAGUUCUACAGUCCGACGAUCGACAUGUCAACAAGAUACAUUCAUUUCUCCCGGAAUGUGUAUUGUUUUUAUUUUACAAAACAGAGAAACAACAAAAGGCUUGGAACUCCUUCAUUCUACGUGGAAUACUAUGGAAUUCUCGGGUGCCAA: 0.663
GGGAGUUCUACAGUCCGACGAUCUCUGGCAGUAUUUUAAACAUGCUAGCAUUUCAGGGGUAUUCUACUUAAAAACAAAACAAAACUGGGAUCAGAUGGCAUCCUAGUUUUGGUACCGGGGCAUUGCCAGUCACUGGAAUUCUCGGGUGCCAA: 0.221
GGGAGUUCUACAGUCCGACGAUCAACAUACUUUUCAGUUCCCGAGAGACCACCUAAGUAAGAUGACAUUUCUGACAGGCGGGUGCCAGUCUGCACUGCCCGCAGUGAGUGCAGGUUCUGUUUUUGAGUUUGGUUGGAAUUCUCGGGUGCCAA: 0.796
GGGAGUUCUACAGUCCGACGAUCCUGGCUGCUGCUCCCUCUGGGCUCAUAGCUGGCCCACUUGACGGUCCCUGGUGGCUUCUGGAGGGAAGCUGUACCUCUAGAUACAUUUUUCUUUUCCUUCAGAGACCGUGUGGAAUUCUCGGGUGCCAA: 0.247
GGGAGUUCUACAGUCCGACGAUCACGUACUGUAUUUUUACAAUGAUCGUCGCAUGGCUCUCCCACCCCCUUUUGUACUCAGUAUCUGUCUUCCAGAAACCUCACCUGCCUUCUCUCUCAUGUGGUCUCUUAAUUGGAAUUCUCGGGUGCCAA: 0.518
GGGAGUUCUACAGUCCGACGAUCCACAAAUCUGUCUUUCAUACCACUCUAUCUGCCAUUCAUUCUUGUUAAAUGAGGCAUUGUUUUCUUUAUUUAAGAUUGAGUUAUGACUUUAAAUGUUUAUGAGCUAGUUUUGGAAUUCUCGGGUGCCAA: 0.328
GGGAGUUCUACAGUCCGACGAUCAAAUAUGCAAGGUUUGUUCUAUAUUAUGAUCACUAUUAAUCUUUUAUCACUCAAUUUUAAAACUAGUAAUUUACUUUGGCUCAGAAAUGUACUAUAUUUAUAAUUAUUGUUGGAAUUCUCGGGUGCCAA: 3.09
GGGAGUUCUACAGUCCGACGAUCGCAACCCUCGGCUCUUGCCAAGGCACCACAGAAUGCACUUGCUCAUGCCCUGUGCCUCUUGAGCAGAAAAGAGCACUGACAACUGGGACACCUGGCUCUGUCUUCCUACAUGGAAUUCUCGGGUGCCAA: 0.535

Block 4
Target: Ras GTPase-activating protein-binding protein 1, C-terminal RGG region (G3BP1, Homo sapiens, UniProt Q13283)
UniProt Q13283, sequence (whole entry, looked up): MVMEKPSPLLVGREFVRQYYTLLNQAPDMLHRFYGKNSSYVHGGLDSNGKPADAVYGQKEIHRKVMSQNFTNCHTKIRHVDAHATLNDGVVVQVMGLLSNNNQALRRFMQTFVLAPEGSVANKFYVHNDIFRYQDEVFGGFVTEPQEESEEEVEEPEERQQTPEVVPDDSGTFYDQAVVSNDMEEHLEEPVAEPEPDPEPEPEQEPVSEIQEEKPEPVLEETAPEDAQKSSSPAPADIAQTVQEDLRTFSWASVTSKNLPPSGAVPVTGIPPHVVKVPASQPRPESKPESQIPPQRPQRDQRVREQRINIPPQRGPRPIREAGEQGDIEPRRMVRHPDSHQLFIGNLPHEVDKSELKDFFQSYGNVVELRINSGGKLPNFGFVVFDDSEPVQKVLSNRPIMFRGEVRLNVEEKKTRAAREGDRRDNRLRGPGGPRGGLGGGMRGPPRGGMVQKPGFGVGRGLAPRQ
Method: RNA Bind-n-Seq
Form: RNA
Matrix: in vitro
Concentration: 1 µM
Notes: whole 134-nt RNA, ends assumed
With: 150 mM KCl
Baseline: input library
Reading: higher = stronger binding
Quantity: log2 enrichment
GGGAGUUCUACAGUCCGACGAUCGCAGGAAGUAAAAACAAAUGGAAAUGCUUCGGAUAGUGGCAGGGGUGGGGGUUGCUAAGAAAAGGGUGGGAUGGGAGUGGGUAAAGAGUUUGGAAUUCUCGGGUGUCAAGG: 1.53
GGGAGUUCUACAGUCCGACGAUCGCCCAUGCUAAAGUAAGAUUGUCUAACAAAGUUGAAGCCAUUGAUGUGGAAGAGGCCAAACGCCUCCAUCGGGAAGCUCUGAAGCAGUCUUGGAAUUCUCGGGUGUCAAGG: -1.02
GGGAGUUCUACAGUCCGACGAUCCAAGUCCUGUGCUACACAUCGUAUGUACCGAAUCGGGUUUGGGAAAGGGAAAGGGAAAGUAUUAUGUUACGCCGUUCGGAUCUGCACUUCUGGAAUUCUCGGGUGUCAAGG: 1.79
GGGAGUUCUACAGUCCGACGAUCAGUCCUGUGCUACACAUCGUAUGUACCGAAUCGGGGUGGGGAAAAAGGGGUUUGGGGAAAGUAUUAUGUUACGCCGUUCGGAUCUGCACUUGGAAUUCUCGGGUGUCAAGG: 1.85
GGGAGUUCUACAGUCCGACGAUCACCAUGCAGGUGGGCAUCUUUGGGAAGAAAGGCAAGGGGGGGAUAGGGAGGGGGGUAACACUUUGGGAACAGGUGGUCCCAGGUCGUUUCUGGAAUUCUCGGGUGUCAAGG: -1.06
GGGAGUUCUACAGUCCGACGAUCUGGGAGGUGGAUUUUGUUUAUUUUUUUAGCUCCUUUCCAGGGGUGGGAAUUUUUUUUUAAUAUGUGUCAUGAAUAAAGUUGUUUUUGAAAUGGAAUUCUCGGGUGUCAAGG: 3.2
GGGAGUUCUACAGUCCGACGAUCAAGUCCUGUGCUACACAUCGUAUGUACCGAAUCGGUUUUGGGGUUUUGGUUUUGGGGAAAGUAUUAUGUUACGCCGUUCGGAUCUGCACUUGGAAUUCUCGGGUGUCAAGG: -1.18
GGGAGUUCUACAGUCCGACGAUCCAAAAACAACACGCACCCACACAGACACAGAGGGAAGGGGUUGGGAUGGGGACAGGGUGCACAGCAGGGCGGGGUAGGACCCCAGCCCCUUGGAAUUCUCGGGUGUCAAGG: -0.627
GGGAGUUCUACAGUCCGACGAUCACCAUGCAGGUGGGCAUCUUUGGGAAGUGGGGCAAGGGGGGGCUAGGGAGGGGGGUAACACUUUGGGAACAGGUGGUCCCAGGUCGUUUCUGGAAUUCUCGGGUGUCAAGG: 2.35
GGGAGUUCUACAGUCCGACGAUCAAGUCCUGUGCUACACAUCGUAUGUACCGAAUCGGGUUUUUGGGAGGGUUUUUGGGAAAGUAUUAUGUUACGCCGUUCGGAUCUGCACUUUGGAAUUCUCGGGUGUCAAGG: 0.896

Repeated from above (block 2):
CTTCATCA: -0.0282
TTGTGAAA: 0.085
CCCACACA: 0.0763
CGATTTAC: -0.0663
AAAATGAC: -0.0936
CGACCGAA: 0.158
